Published values pooled from the literature.
Numbers after ± are the reported error.

SMILES = c1coc(-c2n[nH]cc2-c2ccnc3ccccc23)c1; target or system = GCN2 (Candida albicans); test = kinase binding, MIB/MS competition; system = Candida albicans lysate; conditions = 1 µM; scale = reference: DMSO; measurement = log2 fold change; result = -0.21
SMILES = CC1(C)S[C@@H]2[C@H](NC(=O)[C@H](N)c3ccccc3)C(=O)N2[C@H]1C(=O)O; target or system = Citrobacter freundii; system = clinical isolate RKI-No_604/16; measurement = MIC; result = > 16 µg/mL
SMILES = N=C(N)c1ccc(OCc2cc(COc3ccc(C(=N)N)cc3)cc(-c3ccccc3)c2)cc1; target or system = Escherichia coli; system = BW25113; conditions = in combination, lowest-FICI combination, added: vancomycin; measurement = MIC; result = 25 µg/mL
SMILES = CN[C@H](CC(C)C)C(=O)N[C@H]1C(=O)N[C@@H](CC(N)=O)C(=O)N[C@H]2C(=O)N[C@H]3C(=O)N[C@H](C(=O)N[C@H](C(=O)O)c4cc(O)cc(O)c4-c4cc3ccc4O)[C@H](O)c3ccc(c(Cl)c3)Oc3cc2cc(c3O[C@@H]2O[C@H](CO)[C@@H](O)[C@H](O)[C@H]2O[C@H]2C[C@](C)(N)[C@H](O)[C@H](C)O2)Oc2ccc(cc2Cl)[C@H]1O; target or system = Staphylococcus simulans; test = broth microdilution; system = 22, cation-adjusted Mueller-Hinton broth; conditions = 20 to 24 h, 37 °C, 0.002% polysorbate 80; measurement = MIC; result = 0.125 µg/mL
SMILES = NC[C@H]1O[C@H](O[C@H]2[C@H](O)[C@@H](O[C@H]3O[C@H](CO)[C@@H](O)[C@H](N)[C@H]3O)[C@H](N)C[C@@H]2N)[C@H](O)[C@@H](O)[C@@H]1O; target or system = Kocuria sp.; test = broth microdilution; measurement = MIC; result = 27.5 µM
SMILES = CC(C)C[C@@H](NC(=O)[C@H](C)NC(=O)CNC(=O)[C@@H](NC=O)C(C)C)C(=O)N[C@@H](C)C(=O)N[C@@H](C(=O)N[C@H](C(=O)N[C@@H](C(=O)N[C@@H](Cc1c[nH]c2ccccc12)C(=O)N[C@H](CC(C)C)C(=O)N[C@@H](Cc1c[nH]c2ccccc12)C(=O)N[C@H](CC(C)C)C(=O)N[C@@H](Cc1c[nH]c2ccccc12)C(=O)N[C@@H](C(=O)N[C@@H](Cc1c[nH]c2ccccc12)C(=O)NCCO)C(C)C)[C@H](C)O)C(C)C)C(C)C; target or system = Streptococcus pneumoniae; test = broth microdilution; system = NBRC 102642; measurement = MIC; result = 0.0083 µM
SMILES = CCN1CCN(C(=O)N[C@@H](C(=O)N[C@@H]2C(=O)N3[C@@H]2SC(C)(C)[C@@H]3C(=O)O)c2ccccc2)C(=O)C1=O; target or system = Escherichia coli; test = broth microdilution; system = ATCC 25922 wild type; conditions = no clavulanic acid; measurement = MIC; result = 12.5 µg/mL
SMILES = CC(C)NCC(O)c1ccc(O)c(O)c1 (stereo not shown); system = ventricular cardiomyocytes, C57BL/6 mouse; conditions = dose not given, 0.496 s; measurement = sarcomere length; result = 1.53 µm
SMILES = Oc1ccccc1-c1n[nH]cc1-c1ccnc2ccccc12; target or system = KIC1 (Candida albicans); test = kinase binding, MIB/MS competition; system = Candida albicans lysate; conditions = 1 µM; scale = reference: DMSO; measurement = log2 fold change; result = -0.13
SMILES = c1ccc(OCCn2c(CNCC34CC5CC(CC(C5)C3)C4)nc3ccccc32)cc1; target or system = Streptococcus pneumoniae; system = ATCC 49619; measurement = MIC; result = 4 µg/mL
SMILES = Cc1[nH]c(C)c(-c2ccc(-c3ccccc3Cl)nc2)c(=O)c1Cl; target or system = Plasmodium yoelii; system = 17XL; conditions = 384-well; measurement = IC50; result = 240 ± 85 nM
SMILES = N=C(N)c1ccc(OCCC(CCOc2ccc(C(=N)N)cc2)c2ccccc2)cc1 (stereo not shown); target or system = Escherichia coli; system = mcr-2 polymyxin-resistant; conditions = 20 h, compound alone; measurement = MIC; result = > 200 µg/mL
SMILES = CNC(C)C1CCC(N)C(OC2C(N)CC(N)C(OC3OCC(C)(O)C(NC)C3O)C2O)O1 (stereo not shown); target or system = Serratia fonticola; system = clinical isolate RKI-No_517/16; measurement = MIC; result = 4 µg/mL
SMILES = CCCCCCCCCC(=O)N[C@@H](Cc1c[nH]c2ccccc12)C(=O)N[C@H](CC(N)=O)C(=O)N[C@@H](CC(=O)O)C(=O)N[C@@H]1C(=O)NCC(=O)N[C@@H](CCCN)C(=O)N[C@@H](CC(=O)O)C(=O)N[C@H](C)C(=O)N[C@@H](CC(=O)O)C(=O)NCC(=O)N[C@H](CO)C(=O)N[C@@H]([C@H](C)CC(=O)O)C(=O)N[C@@H](CC(=O)c2ccccc2N)C(=O)O[C@@H]1C; target or system = Staphylococcus simulans; test = broth microdilution; system = 22, Mueller-Hinton broth, Mg2+ 10 mg/L; conditions = 16 h, 30 °C, added: Ca2+ 10 mM; measurement = MIC; result = 0.031 µg/mL
SMILES = CC(C)(C)CNCc1nc2ccccc2n1CCOc1ccccc1; target or system = Streptococcus pneumoniae; system = ATCC 49619; measurement = MIC; result = 8 µg/mL
SMILES = Cc1[nH]c(C)c(-c2ccc(OCCSc3ccncc3)cc2)c(=O)c1Br; target or system = Plasmodium yoelii; system = 17XL; conditions = 384-well; measurement = IC50; result = 964 ± 123 nM
